Results of several laboratories.
Protocols differ between the studies behind these lines. “And” joins repeats or separate records; there may be more than shown. ± marks the error that the study gave.

SMILES	test	system	setting	how to read	quantity	value
NC/C(=C\F)COc1cccc(Cn2c(=S)[nH]c(=O)c3[nH]cnc32)c1	–	rat liver microsomes	1 µM, 1 h	–	remaining compound	90%
COc1ncc(-c2nc3c(n2C(C)C)[C@H](c2ccc(Cl)cc2)N(c2cc(Cl)cn(C)c2=O)C3=O)c(OC)n1	–	human patients, plasma	oral, 20 mg, 0-24 h, low-dose arm, cycle 2 day 1	–	AUC(0-t) geometric mean	2290 ng·h/mL
C[Si](C)(C)O[Si](C)(C)O[Si](C)(C)O[Si](C)(C)O[Si](C)(C)C	–	octanol/water	–	–	octanol-water partition coefficient	2.57e+09
Cl.[2H]C([2H])([2H])CC(=O)c1cnc(NC(=O)C2CC2)cc1Nc1cccc(-c2ncn(C([2H])([2H])[2H])n2)c1OC	–	human, fasted, multiple dose	oral, 20 mg twice daily, tablet, day 14, geometric mean	–	Vss/F	144 L
NC[C@@]1(CC(=O)O)[C@@H]2CC[C@H]3C[C@@H]2[C@@H]1C3	–	human, severe renal impairment, plasma	dose not given, geometric mean	–	unbound AUC(0-t)	5850 ng·h/mL
NCCONC(=O)[C@@H]1CC[C@@H]2CN1C(=O)N2OS(=O)(=O)O	–	human male, urine	intravenous infusion, 1 g multiple doses, day 9	–	amount excreted in urine (0-8 h)	864 mg
CNC(=O)c1cc(Oc2ccc(NC(=O)Nc3cc(C(C)(C)C)nn3-c3ccc4ncccc4c3)c(F)c2)ccn1	item: worst grade 3	human	oral, dose not given, cycles 1 and 2, Medium AUC(0-4 h) subgroup	–	patients with any AE of special interest	29%
Cc1c(-c2ccc(N3CCc4cccc(C(=O)Nc5nc6ccccc6s5)c4C3)nc2C(=O)O)cnn1CC12CC3(C)CC(C)(C1)CC(OCCNCC[C@H](O)CO)(C3)C2	–	anaesthetised male beagle dogs	intravenous infusion, 0.3 mg/kg/min, 45 min	reference: vehicle	systemic vascular resistance change	7%
Cc1ccc(C(=O)N(CCCN)C(c2nc3snc(C)c3c(=O)n2Cc2ccccc2)C(C)C)cc1 (centres unmarked)	–	human patients	intravenous, 10 mg/day	–	patients with CTCAE grade ≥3 events	67%
CN1C(=O)[C@@H](NC(=O)c2nnc(Cc3ccccc3)[nH]2)COc2cccnc21	phase I single ascending dose	human, male and female	oral, 800 mg, fasted	–	participants with any AE of special interest	0%
c1ccc2c(c1)ccc1c3ccccc3ccc21	–	PDMS-water partitioning	PAH compilation	–	literature range of log K	4.68 to 5.63 log units
FC(F)(F)c1ccc(CNc2ccc(Cc3c[nH]c4ncc(Cl)cc34)cn2)cn1	item: Headache	patients with advanced solid tumours, all cohorts	oral, 1000 mg/day, any grade	–	treatment-related adverse events	10%
O=C(O)CCC(=O)O.[2H]C([2H])([2H])Oc1cc(C)c2[nH]ccc2c1CN1CC[C@@H](C2CC2)C[C@H]1c1ccc(C(=O)O)cc1	–	human, plasma	50 mg twice daily, day 10, multiple ascending dose	–	Vss/F	74.6 L
C[C@@H](Oc1ccc(S(C)(=O)=O)cc1C(=O)N1C[C@@H]2C[C@]2(c2cc(C(F)(F)F)on2)C1)C(F)(F)F	–	young healthy humans, plasma and urine	oral, 50 mg, 0 to 24 h, multiple dosing once daily	–	renal clearance at steady state	6.5 mL/min
COc1cc2c3c(n(CCCN4CCOCC4)c(=O)c2cc1OC)-c1cc2c(cc1C3=O)OCO2	–	beagle dog, male, plasma	intravenous infusion, 50 mg/m^2, 1 h infusion, vehicle 2	–	t1/2	7.8 ± 3.6 h
CCCC(CCC)C(=O)Oc1cccc(C(O)CCN)c1.O=CO (centres unmarked)	–	Abca4-/-Rdh8-/- mice, photic damage	oral, 20 mg/kg, 7 days, flash intensity 5	–	ERG, scotopic, rod b-wave	99.9 µV and 160 µV and 97.4 µV and 132 µV and 147 µV and 191 µV
Cc1cc(Nc2ccc(S(F)(F)(F)(F)F)cc2)n2nc(C(C)(F)F)nc2n1	–	mouse (CD-1, female), plasma	oral, 300 mg/kg daily, 8 h after dose 10	–	free plasma concentration	354 ± 65 µM
CNC(=O)c1ccc(-c2cnc3ncc(Cc4ccc5ncccc5c4)n3n2)cc1F	item: Hypoalbuminemia, all grades	gastric cancer patients	oral, 600 mg twice daily, expansion cohort, any causality	–	patients with adverse event	0%
CCc1cc(C(=O)NC)c2nccc(N3CCc4c(cc(Cn5ccnc5)cc4-c4cn(C)nc4C(F)(F)F)C3=O)c2c1	–	Sprague Dawley rats	oral, 50 mg/kg once daily, 7 days	reference: vehicle	reticulocyte percentage change	-6.52%

SMILES	test	system	setting	how to read	quantity	value
CCc1c(-c2ccccc2)c(-c2ccccc2)nn1-c1ccccc1-c1cccc(OCC(=O)O)c1	–	female Sprague-Dawley rat, ovary	oral, 10 mg/kg, 4 h	–	concentration	1790 ng/g
CCN1/C(=C/C(C)=O)Sc2ccc(F)cc21	–	cynomolgus monkey	oral, 30 mg/kg, 24 h post-dose	–	QTc interval (Bazett)	328 ± 17 ms
O=C(Nc1nc2cccc(-c3ccc(CN4CCS(=O)(=O)CC4)cc3)n2n1)C1CC1	item: injection site haematoma	human rheumatoid arthritis patients	oral, 200 mg once daily, 4 weeks, regardless of relatedness	–	treatment-emergent adverse events	0%
O=C(O)C1=CO[C@@H](O[C@@H]2O[C@H](CO)[C@@H](O)[C@H](O)[C@H]2O)[C@@H]2C(CO)=CC[C@H]12	post-procedure stability	rat plasma	8 ng/mL, 3 h, room temperature	–	accuracy	104%
C[Si](C)(C)O[Si](C)(C)C	–	1-octanol/air	concentration not given	–	entropy of phase change	-0.034 kJ/(mol·K)
COc1ccc2c(=O)n(C)c(-c3ccccc3)nc2c1	–	Sprague-Dawley rat, male, testis	oral, 30 mg/kg, 2 h	–	tissue concentration	2.93 ng/mL
CNCCOC12CC3(C)CC(C)(CC(Cn4ncc(-c5ccc(N6CCc7cccc(C(=O)Nc8nc9ccccc9s8)c7C6)nc5C(=O)O)c4C)(C3)C1)C2	–	anaesthetised male beagle dogs	intravenous bolus, 0.03 mg/kg, 120 min	reference: baseline	cardiac output change	-47%
Cc1nc2cccc(OCC(C)(C)C(=O)NC(C)C)c2c(N)c1C(=O)O	–	male Swiss albino CD-1 mouse, bone marrow	oral, 500 mg/kg, 48 h	–	micronucleated polychromatic erythrocytes	0.06%
NC1(C(=O)N[C@@H](CCO)c2ccc(Cl)cc2)CCN(c2nc[nH]c3nccc2-3)CC1	–	metastatic CRPC patients	320 mg b.i.d., grade 3 to 4, treatment-related, with: enzalutamide 160 mg daily	–	incidence of Vomiting	0%
CC(C)(C(=O)N1CCOc2c(C#N)cncc2C1)C(F)F	item: eye disorders	healthy humans, both sexes	oral, 20 mg single dose	–	subjects with TEAE	0%
COc1cc2nccc(Oc3ccc(NC(=O)c4cc5c(n(-c6ccccc6)c4=O)CCCC5=O)nc3)c2cc1OC	–	relapsed or refractory AML	oral, all dose levels	–	grade ≥3 Anaemia patients	35%
O=C(OC(C(F)(F)F)C(F)(F)F)N1CCN(Cc2cccc(Oc3ccccc3)c2)CC1	PET blocking study	rhesus monkey, brain HIP	0.3 mg/kg, compound pretreatment, with: [18F]T-401 tracer	–	k2	1.81 min⁻¹
N#Cc1ccc2c(c1)[C@H]1CCCN(C(=O)c3ccc4[nH]cnc4c3)[C@H]1C2	–	human, male	240 mg, end of trial	–	androstenedione level	7.5 nmol/L
COc1cccc(OC)c1-c1cc(C(=O)NC2(C(=O)O)C3CC4CC(C3)CC2C4)nn1-c1ccc(C(=O)N(C)CCCN(C)CCCN(C)C(=O)CN2CCN(CC(=O)[O-])CCN(CC(=O)[O-])CCN(CC(=O)[O-])CC2)cc1C(C)C.[177Lu+3] (centres unmarked)	–	mouse, HT-29 xenograft, kidney	24 h post injection	–	tissue uptake	0.81 %ID/g
O=C1c2ccncc2C(=O)c2c1[nH]c1ccccc21	–	Sprague-Dawley rat female, plasma	intravenous, 5 mg/kg	–	volume of distribution	14.3 ± 8.4 L
OC[C@H]1O[C@@H](c2ccc(F)c(Cc3cc4ccccc4s3)c2)[C@H](O)[C@@H](O)[C@@H]1O	–	Japanese type 1 diabetes patients	oral, 100 mg/day	reference: patients	hypoglycaemia adverse events	6%
CCCCC[C@H](O)CC[C@@H]1[C@H]2Cc3cccc(OCC(=O)O)c3C[C@H]2C[C@H]1O	LC-MS/MS	Japanese PAH patients ≥56.7 kg, plasma	inhaled, 54 µg	–	geometric mean Cmax	0.7 ng/mL
Cc1nc(-c2ccc(OCC(C)C)c(C#N)c2)sc1C(=O)O	–	healthy Chinese subjects	oral, 40 mg	–	abdominal pain incidence	2.6%
C[C@H]1Oc2cc(cnc2N)-c2c(nn(C)c2C#N)CN(C)C(=O)c2ccc(F)cc21	–	mouse, plasma	oral, 10 mg/kg, 1 h, 1 doses	–	free plasma concentration	2.18 µM

For quick reference, copied from above:
SMILES	test	system	setting	how to read	quantity	value
Cl.[2H]C([2H])([2H])CC(=O)c1cnc(NC(=O)C2CC2)cc1Nc1cccc(-c2ncn(C([2H])([2H])[2H])n2)c1OC	–	human, fasted, multiple dose	oral, 20 mg twice daily, tablet, day 14, geometric mean	–	Vss/F	144 L
NCCONC(=O)[C@@H]1CC[C@@H]2CN1C(=O)N2OS(=O)(=O)O	–	human male, urine	intravenous infusion, 1 g multiple doses, day 9	–	amount excreted in urine (0-8 h)	864 mg
COc1ncc(-c2nc3c(n2C(C)C)[C@H](c2ccc(Cl)cc2)N(c2cc(Cl)cn(C)c2=O)C3=O)c(OC)n1	–	human patients, plasma	oral, 20 mg, 0-24 h, low-dose arm, cycle 2 day 1	–	AUC(0-t) geometric mean	2290 ng·h/mL
Cc1nc2cccc(OCC(C)(C)C(=O)NC(C)C)c2c(N)c1C(=O)O	–	male Swiss albino CD-1 mouse, bone marrow	oral, 500 mg/kg, 48 h	–	micronucleated polychromatic erythrocytes	0.06%
CN1C(=O)[C@@H](NC(=O)c2nnc(Cc3ccccc3)[nH]2)COc2cccnc21	phase I single ascending dose	human, male and female	oral, 800 mg, fasted	–	participants with any AE of special interest	0%
C[Si](C)(C)O[Si](C)(C)C	–	1-octanol/air	concentration not given	–	entropy of phase change	-0.034 kJ/(mol·K)
